{"data": "Measured values gathered from unrelated publications", "note": "Each numbered part is a random draw from the data of one study; scales do not carry over between parts."}
{"data": "Series 1", "target": "Hepatocyte nuclear factor 3-alpha (Foxa1, Mus musculus, UniProt P35582, residues 1-468, full length assumed)", "technique": "EMSA with sequencing", "molecule type": "double-stranded DNA, one strand shown", "sample": "in vitro", "concentration": "10 and 20 nM", "setting": "whole designed probe, mean of two concentrations, ends assumed", "baseline": "negative control set to 0", "reading": "higher = stronger binding", "shared flanks, not repeated": "GTGAGCGGTGCCCATTGATGGGGAAC … TTTCACTGGGATCGTGGGGAC", "UniProt P35582, sequence (whole entry, looked up)": "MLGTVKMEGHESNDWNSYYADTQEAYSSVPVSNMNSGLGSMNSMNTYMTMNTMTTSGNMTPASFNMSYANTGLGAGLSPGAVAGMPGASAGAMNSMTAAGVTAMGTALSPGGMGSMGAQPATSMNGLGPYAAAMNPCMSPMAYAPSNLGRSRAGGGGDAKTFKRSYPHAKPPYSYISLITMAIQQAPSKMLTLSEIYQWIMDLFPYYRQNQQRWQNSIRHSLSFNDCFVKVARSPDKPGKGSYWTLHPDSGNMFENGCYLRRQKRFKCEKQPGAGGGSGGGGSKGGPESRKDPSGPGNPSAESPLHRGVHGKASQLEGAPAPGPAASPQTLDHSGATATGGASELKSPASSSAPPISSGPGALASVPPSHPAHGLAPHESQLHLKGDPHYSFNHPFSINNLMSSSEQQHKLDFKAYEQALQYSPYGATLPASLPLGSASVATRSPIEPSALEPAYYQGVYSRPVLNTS"}
{"Strand": "ACCCTGTGCACCTTGTCTACGTCAGGGTGCTGTTGAAAGATTATTGAGGCCATGTCTGTAGGAAAGCCAGAGCTTCAAGAACAACAAAAACAATGTAATCTGGACTCCTTTCCTATTCTATTAATTCTATTGAAATTATTGAAAAATAATTGTCCTTGCTTTATTTTAAAATTACATGTATTGGTTTTCATCA", "normalised bound fraction": "0.00135 ratio"}
{"Strand": "ATCTTCCCCCTCTTCCTTGCCCCACCAGCTCACCTTCCCGGGTTATTTGCAGATAGGAAAATAAATAAAGCCGGCATTCGTTAACCCTCTTCACGCGCATACTGCTGTTTGCTCTGCATCTAACATGGTCCTTACGCGACGCCAGGCTCCGGGAGAGCAAAGCACCGTGTCAGGCGCATGATCCGGGGTGGCC", "normalised bound fraction": "0.357 ratio"}
{"Strand": "ATCTTCCCCCTCTTCCTTGCCCCACCAGCTCACCTACGGGGGTTATTTGCACAAAGGAAAATAAATAAAGCCGGCATTCGTTAACGCAGTTCACGCGCATACTGCTGTTTGCTCTGCATGAATCATGGTCCTTACGCGACGCCAGGCTCCGGGAGAGCAAAGCACCGTGTCAGGCGCATGATCCGGGGTGGCC", "normalised bound fraction": "0.393 ratio"}
{"Strand": "CATTAGTTCATGCCAGGCAGGGTTTGACCAAAACCTTGGACTCACTCCTGTCTGCTTTCCTTCAGTGACTAAGAGGATTCCTGAGATGGATGTGCAATCTTGAAGAGATTACTTTCCTCCATGGGAATGTACTTCTGGCTTCCACTCCTCAGCTGCTGCTGCTAAGCCAGTGAGATAGATGGTGGTTTGGAAA", "normalised bound fraction": "-0.0828 ratio"}
{"Strand": "GCATGAAGCGTTGGGTCCAACTGCATGAAGAGCACTGAGTCTCTCAGAGATGAGAGCATAAATGACTCAATCTTGATAGGTCTTGGTAAGCAAAGTAAACAAGAGCACATGGAATCACCAATAATTCTGCCTTTCAGAAGGCAGGATCCCCGCTCCAGATATCAGAGCCAATGGGTCTGGAAAGGCTGCATTT", "normalised bound fraction": "0.47 ratio"}
{"data": "Series 2", "target": "RING finger protein unkempt homolog, zinc fingers 1-6, SBP tag (UNK, Homo sapiens, UniProt Q9C0B0, residues 30-357)", "technique": "RNA Bind-n-Seq", "molecule type": "RNA", "sample": "in vitro", "concentration": "100 nM", "setting": "RNA with constant flanks, vertebrate orthologous sites, ends assumed", "baseline": "input RNA pool", "reading": "higher = stronger binding", "shared flanks, not repeated": "GGGAGUUCUACAGUCCGACGAUC … CAACAGAGGAUUGAGCAUCA", "UniProt Q9C0B0, sequence (30-357, looked up)": "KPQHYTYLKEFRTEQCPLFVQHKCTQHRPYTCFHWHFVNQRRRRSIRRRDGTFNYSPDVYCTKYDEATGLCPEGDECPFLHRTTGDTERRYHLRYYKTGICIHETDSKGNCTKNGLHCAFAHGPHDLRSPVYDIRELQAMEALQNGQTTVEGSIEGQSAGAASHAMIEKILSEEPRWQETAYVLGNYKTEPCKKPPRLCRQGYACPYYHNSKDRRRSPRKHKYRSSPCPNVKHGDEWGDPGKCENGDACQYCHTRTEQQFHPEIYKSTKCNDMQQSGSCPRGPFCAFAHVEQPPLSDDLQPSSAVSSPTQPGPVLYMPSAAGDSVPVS"}
{"Strand": "CCUGGAGAUCCCGUUGUCACUGAGAACCACAAAUCUGACUUUUACAUUUGGUCUCAGUUUAGGUUCUUACCCUGUUUUUUUUGUUGUUUUUUUUUUUGUUUUGUUUUUUUGUUUUUUUUU", "bound/input enrichment [ratio]": 2.35}
{"Strand": "CAUGUCCUUUUUACUGUGGUAUUCAGAACAGCCACAGUACUCACUUUUUCCAAAUGAUUCUAGUAAUUGCCUAGAAAUAUCUUUUUCUUACCUGUUAUUUAUCAAUUUUUCCCAGUAUUU", "bound/input enrichment [ratio]": 1.48}
{"Strand": "AAUACAUGUGUGAAACAUGUCUACCCAGAAAACAUAGCAUUCUGUAAAUAUCAAGGAAUUUAGCUAGAGUACUUUUAGGUAUUAAAUUACAUAUUAAGCAUUUAAAGUGAAUUUGGGAUU", "bound/input enrichment [ratio]": 0.363}
{"Strand": "CCACGUUAAACAACUCAGGGCAGUAUUCCCGAUAUCCUUAUAGUAACCUUAAUCAGGGAUUAGUUAAUAAUACAGGGAUGAAUCAGAAUUUAGGCCUUACAAACAACACUCCAAUGACUC", "bound/input enrichment [ratio]": 1.97}
{"Strand": "GUGUUGGUGCAGAGCAUUCUGUACCACUGCUCAUCAUCCCUUCUUCAUACCACCUCUCUCUAGUUGUAGGAAUUUAAUAUUUUUAAAAGUUUUACAUUGCUGUAUAUUCAAAAUUGUUUA", "bound/input enrichment [ratio]": 1.5}
{"Strand": "CAUCUCUCAUUUUAUAUGUCCAAAAUGGCCUUCGAUUUUUAAAUGGUUGCCAGUUGUAAUUAGCCCUGCCCUCAUGAAUUAUUGCCGUAGUUCACCACAGUAUCUGUUUGAAUUACUGCA", "bound/input enrichment [ratio]": 0.388}
{"Strand": "GAAACUUAGUUAGUUACUUACACUUAAUGACCUCAUGCCUGAGUUCCUUUUUUCACUGAAUUACCUUUCUUUUUUAUUGUUGCAGUUUUAAUAAUAGGAAUAAAUAGAAGGCUGUGCUGG", "bound/input enrichment [ratio]": 2.21}
{"Strand": "GUCCUUUCAUACUGUCCCCAGCCAGGGUCAAGGACCAGACGUUUCACUGAGGACCUGCAUUUCAAACAGUUUUUAAAUUGUACAGGAAGAGAUGCGACAAAACAGCAUCUCAGCGUCGAG", "bound/input enrichment [ratio]": 0.362}
{"data": "Series 3", "target": "Histone acetyltransferase KAT6A, winged helix 2, GST fusion (KAT6A, Homo sapiens, UniProt Q92794, residues 85-181)", "technique": "protein binding microarray", "molecule type": "double-stranded DNA, one strand shown", "sample": "in vitro", "concentration": "not given", "setting": "8-mer, flanks averaged, mean of 2 arrays, mostly near background", "baseline": "not given", "reading": "higher = stronger binding", "Target sequence (chain)": "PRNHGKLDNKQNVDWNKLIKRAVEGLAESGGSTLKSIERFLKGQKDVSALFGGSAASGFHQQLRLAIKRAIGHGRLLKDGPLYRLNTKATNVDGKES"}
{"Strand": "GAGGCCAA", "E-score": 0.0144}
{"Strand": "ACATCGCG", "E-score": -0.00726}
{"Strand": "CCGGTACC", "E-score": -0.0312}
{"Strand": "GTTGGAGA", "E-score": 0.118}
{"Strand": "AAACGTGA", "E-score": -0.0627}
{"Strand": "CGCTAACC", "E-score": 0.102}
{"Strand": "TCAAAAGA", "E-score": 0.0635}
{"Strand": "AGCGTTCA", "E-score": -0.22}
{"Strand": "ACAACTGT", "E-score": -0.163}
{"Strand": "AAGTACAG", "E-score": -0.0695}
{"Strand": "CCTCGCCA", "E-score": 0.0105}
{"Strand": "AAAGGAAC", "E-score": 0.0203}
{"Strand": "AACATGTC", "E-score": -0.216}
{"Strand": "CGCCAGAC", "E-score": 0.12}
{"Strand": "ATCCATCG", "E-score": -0.18}
{"Strand": "CTTCATTA", "E-score": 0.215}
{"Strand": "GTGTGAAA", "E-score": 0.139}
{"Strand": "AAGGAAGT", "E-score": -0.018}
{"Strand": "CTCGGAGC", "E-score": 0.217}
{"Strand": "CTGAGGGC", "E-score": 0.00351}
{"Strand": "AAGAATCT", "E-score": -0.0811}
{"data": "Series 4", "target": "RNA binding protein fox-1 homolog 2, RRM domain, GST-SBP tag (RBFOX2, Homo sapiens, UniProt O43251-10, residues 100-194)", "technique": "RNA Bind-n-Seq", "molecule type": "RNA", "sample": "in vitro", "concentration": "365 nM", "setting": "natural RNA segment, single round, ends assumed", "baseline": "no-protein control", "reading": "higher = stronger binding", "shared flanks, not repeated": "GGGAGUUCUACAGUCCGACGAUC … UGGAAUUCUCGGGUGCCAA", "Target sequence (chain)": "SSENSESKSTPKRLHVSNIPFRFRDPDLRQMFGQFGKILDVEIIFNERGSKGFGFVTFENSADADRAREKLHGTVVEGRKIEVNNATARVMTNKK"}
{"Strand": "UUUUCUUCAGGUGUCAAUGGCGUUAGACUCCCAGGAAGACUAGCCCUGCCCACAGGGCCACCUGUUGGUUUGAGAGCGUGUUCGUGUUCUCUUGCCCUCCCUGCCUAAGA", "RBNS enrichment (R)": 0.272}
{"Strand": "CAGCUUUAUGUGCAUAGUGCUCAUCUGUAGCUAGGGCACACCAAAGGUCAUAUUUUAACUCUUUAUAGGAAAUGCCUUUAACACAAGUGACUGUAGGUGACUUUCUUGUG", "RBNS enrichment (R)": 0.56}
{"Strand": "GGUGGCUGUUAACCACCCGCCCCGCCCCCUCCCUGCUCCCAGCUCUCUCUCCUGGAGUCUGAAGCCUGCAGGUCCGGGGAGGAGGUUCGGGAUUCCCUGGUGGGCCUCGA", "RBNS enrichment (R)": 1.17}
{"Strand": "UUAGGUUUAUACUUAGAUGGUUGUUCAGUAAGUUUAUAGAGUUGUGCAACUAUCACAACCAAUGUUAGAACAACUCAAAAAAAAAAAAAAUCUUAUUCCAGUUUGCAAUU", "RBNS enrichment (R)": 0.87}
{"Strand": "ACGUGUUGUGUUUUCUGAUGUUGACUUGAGUUCCAUUUAGUAGCAUCUCUUCCUUCCAUGUCUUGAUGUUAUGCAGGAAGUACAGACGUACUUUAAAUUUUUGUUAUGAA", "RBNS enrichment (R)": 2.13}
{"Strand": "CUCUGAGAGCCCUCGCGUCCCAGGCCCCAGCCAGGGGGCCGGCCUUGUCCCGCCUCAUCCACAGAAAGGGAGGAUGGGCGAUGACAGUUGUUUCUAUGCCUUCUGACCCA", "RBNS enrichment (R)": 0.627}
{"Strand": "CCCCACCAAAGGGAAGCAGAGAAGCCCCUGGCCAUGCACAUUGAGUAUGAUGAGCAAAAGGCCAGAACUCCAGUGUCCUGUGAGAUUGGCUGACCCGAGCGAGGUAUUAU", "RBNS enrichment (R)": 0.482}
{"Strand": "UUGAGACAGGACGGGUCCCACACUCCCUGCCUCUGUCUCACUCAACACUCAGGCUAAGAAGGAGCGGGUCACCACAGACAAGAGUGGGGCCAUAUGUAGCACAGCAAUAU", "RBNS enrichment (R)": 0.638}
{"note": "For quick reference, copied from above (series 3):"}
{"Strand": "GAGGCCAA", "E-score": 0.0144}
{"Strand": "ACATCGCG", "E-score": -0.00726}
{"Strand": "CCGGTACC", "E-score": -0.0312}
{"Strand": "GTTGGAGA", "E-score": 0.118}
